Results from different studies.
Numbered parts are unrelated; each lists some results of a single study.

Study 1 — technique: protein-binding microarray; form: double-stranded DNA, one strand shown; medium: in vitro; concentration: not given; direction: higher = stronger binding
Target: Max-binding protein MNT, bHLH-zipper, MAX partner unstated (MNT, Homo sapiens, UniProt Q99583, residues 220-300)
Notes: k-mer, scored over probes, only values ≥0.25
Target sequence (chain): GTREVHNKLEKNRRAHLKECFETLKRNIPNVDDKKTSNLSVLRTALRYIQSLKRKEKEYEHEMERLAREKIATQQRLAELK
Sequence	E-score
CATGTCGC	0.328
ACGGGGTA	0.274
CGTGACGA	0.325
CACGCTGC	0.426

Study 2 — technique: aptamer microarray, sandwich; form: DNA with 2'F-ANA; medium: in vitro; concentration: 200 nM; added: Cy3 exosite-II aptamer, 400 nM; direction: higher = stronger binding
Target: Prothrombin, mature alpha-thrombin (F2, Homo sapiens, UniProt P00734)
Notes: whole 15-mer aptamer, many near background
Sequence	mean fluorescence intensity
GGTTGGTGTGGTTGG (2'F-ANA at 2 4 7 8 12 13)	526 a.u.
GGTTGGTGTGGTTGG (2'F-ANA at 2 5 6 9 11)	64.6 a.u.
GGTTGGTGTGGTTGG (2'F-ANA at 1 2 3 4 6 9 15)	138 a.u.
GGTTGGTGTGGTTGG (2'F-ANA at 3 5 11 12 13 15)	187 a.u.

Study 3 — technique: protein-binding microarray; form: double-stranded DNA, one strand shown; medium: in vitro; concentration: 0.8 µM; notes: whole 60-bp probe, no competitor; direction: higher = stronger binding; constant ends, left off below: … GTCTTGATTCGCTTGACGCTGCTG
Target: Centromere-binding protein 1, full length, N-terminal tag (CBF1, Saccharomyces cerevisiae, UniProt P17106, residues 1-351)
Sequence of UniProt P17106 (whole entry, looked up): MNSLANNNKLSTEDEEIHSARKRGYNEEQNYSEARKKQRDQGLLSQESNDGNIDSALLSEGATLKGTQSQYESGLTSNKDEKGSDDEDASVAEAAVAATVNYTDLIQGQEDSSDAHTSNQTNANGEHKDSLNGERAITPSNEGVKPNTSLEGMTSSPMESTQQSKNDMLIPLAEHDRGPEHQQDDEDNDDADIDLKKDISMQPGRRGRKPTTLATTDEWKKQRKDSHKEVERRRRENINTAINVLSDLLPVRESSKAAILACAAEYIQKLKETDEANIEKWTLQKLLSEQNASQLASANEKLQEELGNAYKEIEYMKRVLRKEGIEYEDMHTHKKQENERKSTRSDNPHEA
Sequence	fluorescence intensity
CTATACTCACTTGCTCACGCAATAATTTGATTTTTC	535 a.u.
CTAAAAGACATATAAAACGTGTATTAGATAGAATTC	542 a.u.
CTAAGGATATGACATCATGAGAAAAAAATGAGCTTC	525 a.u.
GAAATTATTGTGTCGTGCATTCCATTAGATTGGTAG	561 a.u.
GAATCCCATGACAAACTCACCTGGATAGTATGGTAG	560 a.u.
CTAACCGATATAGAATGTCTGATGAAAGAGCAATTC	555 a.u.

Further values, each from its own experiment
Molecule	target	test	test system	setting	how to read	quantity	result
PhoQ, residues 284 288 289 292 302 303 SASVAL	PhoP, residues 12 14 15 18 19 LYFRQ (Escherichia coli, UniProt P23836)	Sort-seq, measured: YFP reporter	E. coli	PhoQ-PhoP variant library, added: 10 µM Mg2+	baseline: high Mg2+ state, higher = stronger signaling	fold induction	1.34
